Assay results of several laboratories.
Numbered parts are unrelated; each lists some results of a single study. Positions count from the first letter of the parent shown.

Study 1
Target: Histone acetyltransferase KAT6A, winged helix 1, GST fusion (KAT6A, Homo sapiens, UniProt Q92794, residues 1-85)
Method: protein binding microarray
Form: double-stranded DNA, one strand shown
Medium: in vitro
Tested at: not given
Setting: 8-mer, flanks averaged, mean of 2 arrays, mostly near background
Relative to: not given
Direction: higher = stronger binding
Construct (chain): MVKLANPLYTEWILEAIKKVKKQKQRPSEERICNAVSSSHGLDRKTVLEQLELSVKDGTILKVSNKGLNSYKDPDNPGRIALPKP
Sequence	E-score
CAAAAGAG	-0.0632
GAACGGAC	0.199
GCGGACCC	0.336
AGTACTTC	0.0453
CCTAGCAC	-0.0812
GTATCACA	-0.0481
GTCGAATA	-0.0888
AGTCTCAA	-0.149
AGTATGCC	-0.0396
CGGTAAGA	0.1
AGATCCCC	0.0151
ATATGTAC	-0.0133
ACAACACA	-0.27
AGTCGGCC	0.102
AGTTAGTC	0.0673
AATAACGT	0.0456
AGGACGAG	-0.234
ACTGACAA	-0.159
CAATCGGA	-0.0937
GTCCCTTA	0.104
CGAACTTC	-0.289
TCTGTTCA	-0.157
AACACCTT	-0.0815
CACTCCGC	0.103

Study 2
Target: ABI1, truncated, D143A, DHFR fusion (Arabidopsis thaliana)
Method: DHFR PCA, deep sequencing
Medium: yeast
Setting: methotrexate growth selection, single substitutions
Together with: (+)-ABA 17 µM
Relative to: wild-type fitted maximum
Direction: higher = stronger binding
Starting sequence: PYL1, truncated, DHFR fusion (Arabidopsis thaliana); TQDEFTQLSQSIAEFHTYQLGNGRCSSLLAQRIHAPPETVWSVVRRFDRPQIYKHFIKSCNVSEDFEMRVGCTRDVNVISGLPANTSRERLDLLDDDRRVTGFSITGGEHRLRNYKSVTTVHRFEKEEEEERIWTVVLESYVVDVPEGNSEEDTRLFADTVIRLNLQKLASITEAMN; partner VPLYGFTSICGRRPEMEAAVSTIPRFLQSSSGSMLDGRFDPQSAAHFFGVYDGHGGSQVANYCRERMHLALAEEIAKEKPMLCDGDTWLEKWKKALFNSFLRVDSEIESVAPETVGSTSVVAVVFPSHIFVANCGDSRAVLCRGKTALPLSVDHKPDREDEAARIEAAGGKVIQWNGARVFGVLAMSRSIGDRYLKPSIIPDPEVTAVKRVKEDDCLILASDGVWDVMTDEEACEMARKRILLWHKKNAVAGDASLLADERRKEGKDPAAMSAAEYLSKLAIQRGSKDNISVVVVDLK
Substitution	relative binding score [%]
V118S	18.9
E67A	80.1
R132I	79.2
D144G	12.3
N77W	74.2
L112C	22.5
R90I	44.9
S171F	77.9
E151P	90.5
S117R	3.27
R88T	88
N22Q	87.4
T73V	90
N77S	92.7

Study 3
Target: Prothrombin, mature alpha-thrombin (F2, Homo sapiens, UniProt P00734)
Method: aptamer microarray, sandwich
Form: DNA with 2'F-ANA
Medium: in vitro
Tested at: 200 nM
Setting: whole 15-mer aptamer, many near background
Together with: Cy3 exosite-II aptamer, 400 nM
Direction: higher = stronger binding
Sequence: GGTTGGTGTGGTTGG
Modification	mean fluorescence intensity
2'F-ANA at 1 3 6 9 10 11 13	71.5 a.u.
2'F-ANA at 1 2 6 8 10 12	66.2 a.u.
2'F-ANA at 1 4 9 10 12 13	52.4 a.u.
2'F-ANA at 2 3 4 6 7 8 12 13 15	632 a.u.
2'F-ANA at 2 4 6 10	85.8 a.u.
2'F-ANA at 1 3 5 7 8 10 14	49.6 a.u.
2'F-ANA at 3 4 6 8 9 14 15	250 a.u.
2'F-ANA at 1 2 5 12 15	112 a.u.
2'F-ANA at 2 5 7 9 10 14	43.1 a.u.
2'F-ANA at 1 5 7 8 9 10 12 13 15	49.2 a.u.
2'F-ANA at 4 5 9 10 13 15	47.8 a.u.
2'F-ANA at 1 3 7 11 12 14	113 a.u.
2'F-ANA at 1 2 4 5 7 9 11 14	79.8 a.u.
2'F-ANA at 3 4 5 7 9 12 14	53.9 a.u.
2'F-ANA at 2 6 8 10 12 14 15	84.3 a.u.
2'F-ANA at 2 4 5 6 7 8 10 13 15	116 a.u.
2'F-ANA at 2 3 4 5 6 7 8 9 10 11 14 15	49.6 a.u.
2'F-ANA at 2 4 5 6 7 9 10 15	47.2 a.u.

Study 4
Target: Interferon regulatory factor 7, full length, phosphomimetic (IRF7, Homo sapiens, UniProt Q92985, residues 1-503, S471D/S472D/S475D/S476D/S477D/S483D/S484D/S487D)
Method: protein-binding microarray
Form: double-stranded DNA, one strand shown
Medium: in vitro
Tested at: 2200 nM top
Setting: 60-bp whole probe
Together with: salmon DNA 0.4 mg/ml
Relative to: random background probes
Direction: higher = stronger binding
All sequences stand within: GCCTAGCAC … GTCTTGATTCGCTTGACGCTGCTG
Target sequence (chain): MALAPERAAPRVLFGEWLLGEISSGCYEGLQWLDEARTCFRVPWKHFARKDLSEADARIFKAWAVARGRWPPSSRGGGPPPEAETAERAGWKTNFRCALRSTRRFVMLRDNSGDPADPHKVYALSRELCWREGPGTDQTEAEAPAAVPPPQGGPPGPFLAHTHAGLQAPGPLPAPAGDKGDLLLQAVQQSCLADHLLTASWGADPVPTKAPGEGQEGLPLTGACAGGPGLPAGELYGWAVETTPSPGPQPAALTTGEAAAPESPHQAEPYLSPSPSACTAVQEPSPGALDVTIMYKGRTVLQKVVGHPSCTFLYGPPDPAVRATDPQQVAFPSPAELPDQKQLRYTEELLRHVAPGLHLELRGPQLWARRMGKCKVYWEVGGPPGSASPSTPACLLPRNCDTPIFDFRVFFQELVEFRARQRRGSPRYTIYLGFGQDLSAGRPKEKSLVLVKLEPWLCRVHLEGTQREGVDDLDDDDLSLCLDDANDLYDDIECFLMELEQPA
Sequence	fitted relative affinity [z-score]
TGAGGTATCCTTATCCTTTAGTGCTAG	0.222
CTAGGACTGGGTCTCGGTTAGTGCTAG	-0.741
TTAGGCCTGCTTCTCCTTTAGTGCTAG	0.709
TAAGGTCTCCTTATCCTTTAGTGCTAG	0.798
TTAGGTTTCGACTTTCGGTTGGTGCTA	12.8
GACGGTATCCTTCTCCTGCCGTGCTAG	0.764
GCCGGACTGGGTATCGGGACGTGCTAG	-0.878
GACGGTCTCGGTTTAGGGACGTGCTAG	1.55
CTTGCTTGGTGTCTCTGGCCGTGCTAG	0.145
TTAGCACTGGGGTTTCGATTAGTGCTA	2.1
TCTCTTTTCACTTTCTTTACGTGCTAG	5.73
TTAGATTTCAGTCTCGCTTAGTGCTAG	0.984

Study 5
Target: ATF5, bZIP domain (human)
Method: DHFR protein complementation
Medium: yeast
Setting: single substitutions, most at no-binding floor
Relative to: wild-type JUN-FOS pair
Direction: higher = stronger binding
Starting sequence: JUN, bZIP domain (human); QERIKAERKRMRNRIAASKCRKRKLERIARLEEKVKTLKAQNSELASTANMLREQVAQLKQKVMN; partner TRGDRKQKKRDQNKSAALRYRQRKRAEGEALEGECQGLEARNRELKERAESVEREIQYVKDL
Substitution	binding fitness [natural log]
T48P	-1.52
M51C	-0.927
L31W	-1.48
V35W	-1.49
K36P	-1.48
Q55W	-1.48
A49W	-1.51
K39Y	-1.58
E33D	-1.48
A49T	-1.3
I28C	-1.5

Study 6
Target: Fragile X messenger ribonucleoprotein 1, C-terminal low-complexity region (Fmr1, Mus musculus, UniProt P35922)
Method: RNA Bind-n-Seq
Form: RNA
Medium: in vitro
Tested at: 200 nM
Setting: whole 134-nt RNA, ends assumed
Together with: 150 mM KCl
Relative to: input library
Direction: higher = stronger binding
All sequences stand within: GGGAGUUCUACAGUCCGACGAUC … UGGAAUUCUCGGGUGUCAAGG
Sequence	log2 enrichment
GUCCUGUGCUACACAUCGUAUGUACCGAAUCGGGAAAAAAAGGGAAAAAAAGGGAGGGAAAGUAUUAUGUUACGCCGUUCGGAUCUGCAC	0.127
UCCUCAAGUCCUGUGCUACACAUCGUAUGUACCGAAUCGGUGGAGGUUUGGAAAGUAUUAUGUUACGCCGUUCGGAUCUGCACUUCCAGC	-0.608
UUCCUCAAGUCCUGUGCUACACAUCGUAUGUACCGAAUCGGUGGAGGUGGAAAGUAUUAUGUUACGCCGUUCGGAUCUGCACUUCCAGCA	-0.573
CAAGUCCUGUGCUACACAUCGUAUGUACCGAAUCGGGGUUUGGGUUUGGGUUUGGAAAGUAUUAUGUUACGCCGUUCGGAUCUGCACUUC	-0.0579
AGUCACUUUUUAAUUUUAUUUAUUAUUUCUCCUCUUAGACCGCAGGAUGGAAACAAGCCCACUGAGACUAGUCAACCUCAAUCUAGCACA	0.94
CUCAAGUCCUGUGCUACACAUCGUAUGUACCGAAUCGGGAAGGGGAAGGGAAGGAAAGUAUUAUGUUACGCCGUUCGGAUCUGCACUUCC	-0.158
UGGAGCUACAGAUGGUGUCCUUCCUGCCAGGUGUGUGUGGAGGCCAGUAUGAAGCUGAAAAAGCAGGUGACAGUGUGUGGGGCUGCCAUC	-0.231
CUGUGCUACACAUCGUAUGUACCGAAUCGGGGUUUUUUUGGGGAAAAAGGGGUUUUUGGGGAAAGUAUUAUGUUACGCCGUUCGGAUCUG	0.0694
UUGUGGAAAACCCACAUGCUCCUCAGAAAGAUGAUGCCCUGGUGAUCACACACUACAACCGGACCCGACAGCAGGAAGAGAUGCUGGGGC	-0.125

Study 7
Target: CCNA2, cyclin fold, Cln2 fusion (human)
Method: yeast growth competition, sequencing
Medium: yeast
Setting: strong parent motif
Relative to: not given
Direction: higher = stronger binding
Starting sequence: MICAL3 docking peptide (human); LQLRRQLSFSEDS
Substitution	normalised enrichment score
LQLIRQLSFSEDS [R4I]	0.59
LQLRRQLSHSEDS [F9H]	-0.168
LQSRRQLSFSEDS [L3S]	5.48
LQLRRQLSFMEDS [S10M]	2.18
LQLRRQLSFSEGS [D12G]	3.38
LQPRRQLSFSEDS [L3P]	4.87
LQLCRQLSFSEDS [R4C]	2.13
LQLRRQLSFSEVS [D12V]	3.94
LQLRRQYSFSEDS [L7Y]	0.207
LQLDRQLSFSEDS [R4D]	-0.206
LQLRRQLSFYEDS [S10Y]	2.64
LQLRRQWSFSEDS [L7W]	-0.033

Repeated from above (study 4):
Sequence	fitted relative affinity [z-score]
TGAGGTATCCTTATCCTTTAGTGCTAG	0.222
CTAGGACTGGGTCTCGGTTAGTGCTAG	-0.741
TTAGGCCTGCTTCTCCTTTAGTGCTAG	0.709
TAAGGTCTCCTTATCCTTTAGTGCTAG	0.798
TTAGGTTTCGACTTTCGGTTGGTGCTA	12.8
GACGGTATCCTTCTCCTGCCGTGCTAG	0.764
GCCGGACTGGGTATCGGGACGTGCTAG	-0.878
GACGGTCTCGGTTTAGGGACGTGCTAG	1.55
CTTGCTTGGTGTCTCTGGCCGTGCTAG	0.145
TTAGCACTGGGGTTTCGATTAGTGCTA	2.1
TCTCTTTTCACTTTCTTTACGTGCTAG	5.73
TTAGATTTCAGTCTCGCTTAGTGCTAG	0.984
